Assay results from different studies.
Protocols differ between the studies behind these lines. ± marks the error that the study gave. Values after ≈ are worked out from the molar mass of the structure shown.

Structure (SMILES) | assay | system | conditions | scale | endpoint | result
CN(C(=O)n1cnc(-c2ccc[n+]([O-])c2)c1)[C@H]1CC[C@H](O)CC1 |  | Wistar rat, medulla oblongata | oral, 10 mg/kg/day of BIA 10-2474, 4 h, repeated 5 days |  | concentration | 14.9 ± 1.5 ng/g
Cc1cc(C)c(S(=O)(=O)N(C)CC(=O)N2CCC(C(N)=O)CC2)c(C)c1 |  | aqueous buffer | pH 7.4 |  | thermodynamic solubility | 784 µM (≈ 299 µg/mL)
Cn1cc(Nc2nccc(-c3ccc4c(c3)CN(C3COC3)CC[C@H]4NC(=O)c3cn(C(C)(C)C)nn3)n2)cn1 |  | human, whole blood | 150 mg twice daily, day 7 | reference: pre-dose baseline | CD4+ T cell count change | -2.98%
CC(C)(C(=O)N1CCOc2c(C#N)cncc2C1)C(F)F | measured: Ecchymosis | human | oral, 10 mg once daily, 14 days, multiple ascending dose |  | subjects with adverse event | 12.5%
c1csc(CNc2cc[nH]n2)c1 | alkaline comet | Hsd:ICR(CD-1) mice, male, liver | oral, 125 mg/kg/day, 3 days |  | tail DNA | 1.41%
O=C(Nc1nc2cccc(-c3ccc(CN4CCS(=O)(=O)CC4)cc3)n2n1)C1CC1 | measured: body temperature increased | human rheumatoid arthritis patients | oral, 200 mg once daily, 4 weeks, regardless of relatedness |  | treatment-emergent adverse events | 0%
CCn1ncc2c1-c1cnc(N)c(c1)O[C@H](C)c1cc(F)ccc1-c1nn(C)nc1C2 |  | female athymic nude mice, sample A PDX | oral, 5 mg/kg once daily for 1 days, 12 h |  | unbound plasma trough concentration | 88 ± 61 nM
Cc1c2oc3c(C)ccc(C(=O)N[C@@H]4C(=O)N[C@H](C(C)C)C(=O)N5CCC[C@H]5C(=O)N(C)CC(=O)N(C)[C@@H](C(C)C)C(=O)O[C@@H]4C)c3nc-2c(C(=O)N[C@@H]2C(=O)N[C@H](C(C)C)C(=O)N3CCC[C@H]3C(=O)N(C)CC(=O)N(C)[C@@H](C(C)C)C(=O)O[C@@H]2C)c(N)c1=O | population PK, three-compartment | human |  |  | intercompartmental clearance Q2 | 8.1 L/h/70 kg
CCN1/C(=C/C(C)=O)Sc2ccc(F)cc21 |  | cynomolgus monkey | oral, 100 mg/kg, 1 h post-dose | reference: pre-dose | QTc interval change | 101 ± 3.7%
CCCOc1ccc(NC(=O)CN2CCN(C)CC2)cc1-c1nc(CC)c(CC)c(=O)[nH]1 | least-squares mean difference | healthy Chinese men | 10 mg, added: alcohol 0.5 g/kg | reference: compound plus placebo | AUEC(0-4 h) pulse rate difference | 18.2 h·bpm
CC[C@H]1CC[C@H](c2ccc(-c3ccc(F)c(F)c3)cc2)CC1 |  | rat, fetus | 5000 ng/mL in perfusate, high dose, mixture of 21 LCMs |  | median fetal accumulation | 1.06 ng/g
C[C@@H](N)C1CCN(S(=O)(=O)c2cccc3cnccc23)CC1 | measured: Bradycardia | healthy volunteers | 150 mg, fasted |  | TEAE incidence | 0%
COc1ccc2[nH]c([S+]([O-])Cc3ncc(C)c(OC)c3C)nc2c1 (centres unmarked) |  | healthy Chinese volunteers, plasma | oral, 20 mg, fed, CYP2C19 intermediate metabolizers |  | AUC(0-t) | 672 ± 484 ng·h/mL
Cl.[2H]C([2H])([2H])CC(=O)c1cnc(NC(=O)C2CC2)cc1Nc1cccc(-c2ncn(C([2H])([2H])[2H])n2)c1OC | geometric mean | human | oral, 17.5 mg single dose, fasted, liquid |  | Vz/F | 103 L
c1ccc(-c2nc(N3CCc4nc[nH]c4C3)c3ccccc3n2)nc1 |  | Japanese Pharmacopoeia disintegration test solution 2 | pH 6.8 |  | kinetic solubility | 38 µg/mL (≈ 116 µM)
COc1ccc2c(=O)n(C)c(-c3ccccc3)nc2c1 |  | Sprague-Dawley rat, male, bladder | oral, 30 mg/kg, 0.5 h | reference: bladder over plasma | tissue/plasma ratio | 2.95
CN1CCN(c2cccc3c2CCN(C(=O)/C=C/c2c(-n4cnnn4)ccc(Cl)c2F)[C@@H]3C(=O)Nc2ccc(C(=O)O)cc2)C(=O)C1 |  | healthy human subjects | intravenous infusion, 9 mg/h, 5 days |  | subjects with skin irritation | 0%
CC(C)C[C@H](NC(=O)CNC(=O)c1cc(Cl)ccc1Cl)B(O)O | measured: Diarrhoea | human newly diagnosed multiple myeloma | oral, dose not given, maintenance, grade 3, onset cycle 17 or later |  | treatment-emergent adverse events | 6%
O=C(Nc1cnccc1Cl)N1CCN(Cc2ccc3c(c2)OC(F)(F)O3)CC1 | measured: Haematoma | human healthy young men | 25 mg, multiple dose |  | adverse event incidence | 0%
CC[C@H](C)[C@H](NC(=O)[C@H](Cc1ccccc1)NC(=O)[C@H](CCC(=O)O)NC(=O)[C@H](CCCNC(=N)N)NC(=O)[C@H](C)NC(=O)[C@H](C)NC(=O)[C@H](CCC(N)=O)NC(=O)[C@H](CCC(=O)O)NC(=O)[C@H](CCC(=O)O)NC(=O)[C@H](CC(C)C)NC(=O)[C@H](Cc1ccc(O)cc1)NC(=O)[C@H](CO)NC(=O)[C@H](CO)NC(=O)[C@@H](NC(=O)[C@H](CC(=O)O)NC(=O)[C@H](CO)NC(=O)[C@@H](NC(=O)[C@H](Cc1ccccc1)NC(=O)[C@@H](NC(=O)CNC(=O)[C@H](CCC(=O)O)NC(=O)[C@H](C)NC(=O)CCc1c[nH]cn1)[C@@H](C)O)[C@@H](C)O)C(C)C)C(=O)N[C@@H](C)C(=O)N[C@@H](Cc1c[nH]c2ccccc12)C(=O)N[C@@H](CC(C)C)C(=O)N[C@H](C(=O)N[C@@H](CCCNC(=N)N)C(=O)NCC(=O)N[C@@H](CCCNC(=N)N)C(=O)N[C@@H](CCCCNC(=O)COCCOCCNC(=O)COCCOCCNC(=O)CC[C@H](NC(=O)CCCCCCCCCCCCCCCCC(=O)O)C(=O)O)C(=O)O)C(C)C |  | rat, plasma | intravenous, 20 nmol/kg |  | MRT | 12.9 h

For quick reference, copied from above:
Structure (SMILES) | assay | system | conditions | scale | endpoint | result
c1ccc(-c2nc(N3CCc4nc[nH]c4C3)c3ccccc3n2)nc1 |  | Japanese Pharmacopoeia disintegration test solution 2 | pH 6.8 |  | kinetic solubility | 38 µg/mL (≈ 116 µM)
CN(C(=O)n1cnc(-c2ccc[n+]([O-])c2)c1)[C@H]1CC[C@H](O)CC1 |  | Wistar rat, medulla oblongata | oral, 10 mg/kg/day of BIA 10-2474, 4 h, repeated 5 days |  | concentration | 14.9 ± 1.5 ng/g
